Measurements gathered from unrelated publications.
Protocols differ between the studies behind these lines. ± marks the error that the study gave. Converted amounts (≈) assume the structure as drawn.
Cell line: Vero

CCCCCCC#Cc1cncc(-c2nnc(SCc3ccc([N+](=O)[O-])o3)n2C2CC2)c1  selectivity index (relative to: Vero CC50 over Mtb IC50): 165
C/C=C1\CN(C)[C@H]2C[C@@]3(C(=O)N(OC)c4ccccc43)[C@H]3C[C@@H]1[C@@H]2CO3  viability (CCK-8; up to 100 µM, 24 h): no effect
O=C(NC1CCCCCCC1)c1cc(-c2ccc(F)nc2F)c[nH]1  IC50 (48 h): > 64 µg/mL
CCCCCCC#Cc1cncc(-c2nnc(SCc3ccc(C#N)cc3)n2C)c1  selectivity index (relative to: Vero CC50 over Mtb IC50): > 3.7
O=C(NC12CC3CC(CC(C3)C1)C2)c1cc(-c2ccc(F)nc2F)c[nH]1  IC50 (48 h): > 64 µg/mL
CCCCCCC#Cc1cncc(-c2nnc(SCc3ccc(Cl)cc3)n2C2CC2)c1  selectivity index (relative to: Vero CC50 over Mtb IC50): 4.8
C=C[C@]12CN(C)[C@@H]3[C@H]4CO[C@H](C[C@H]41)[C@]1(C(=O)Nc4ccccc41)[C@@H]32  viability (CCK-8; up to 100 µM, 24 h): no effect
N.N.[Cl][Pt][Cl]  growth reduction (MTT; 100 µM, 24 h): 7.13 ± 0.54%
O=C(NC1CCCCCCC1)c1cc(-c2ccc(Cl)cc2Cl)c[nH]1  IC50 (48 h): 31.8 µg/mL (≈ 87.1 µM)

For quick reference, copied from above:
CCCCCCC#Cc1cncc(-c2nnc(SCc3ccc(C#N)cc3)n2C)c1  selectivity index (relative to: Vero CC50 over Mtb IC50): > 3.7
